Measurements from different studies.
Lines come from different studies, so protocols differ. Converted amounts (≈) assume the structure as drawn.

SMILES	test system	setting	endpoint	result
CC1COC2=C1C(=O)C(=O)c1c2ccc2c1C(OC(=O)CNC(=O)C(N)CCC(=O)O)CCC2(C)C (mixture of isomers)	PBS	pH 6.4, 25 °C	thermodynamic solubility	1.7 mg/mL
Cc1ncsc1-c1ccc(CNC(=O)[C@@H]2C[C@@H](O)CN2C(=O)[C@@H](NC(=O)CCCCCCCCCC(=O)NCCN2CCN(Cc3cccc(-c4ccc(N5CCN(C)CC5)c(NC(=O)c5c[nH]c(=O)cc5C(F)(F)F)c4)c3)CC2)C(C)(C)C)cc1	aqueous buffer	pH 7.4	kinetic solubility	< 1.56 µM
NC1CCN(C(=O)Oc2ccc(C3CCCC4(C3)OOC3(O4)C4CC5CC(C4)CC3C5)cc2)CC1 (racemic)	PBS	pH 7.4	kinetic solubility	11.5 µM (≈ 5.55 µg/mL)
CC[C@H](C)[C@H](NC(=O)[C@H](C)NC(=O)CNC(=O)[C@H](Cc1ccccc1)NC(=O)[C@H](CC(N)=O)NC(=O)[C@H](CC(N)=O)NC(=O)[C@H](CO)NC(=O)[C@H](CO)NC(=O)[C@H](Cc1c[nH]cn1)NC(=O)[C@@H](NC(=O)[C@H](CC(C)C)NC(=O)[C@H](Cc1ccccc1)NC(=O)[C@H](CC(N)=O)NC(=O)[C@H](C)NC(=O)[C@H](CC(C)C)NC(=O)[C@H](CCCNC(=N)N)NC(=O)[C@H](CCC(N)=O)NC(=O)[C@@H](NC(=O)[C@H](C)NC(=O)[C@@H]1CSSC[C@H](NC(=O)[C@@H](N)CCCCN)C(=O)N[C@@H](CC(N)=O)C(=O)N[C@@H]([C@@H](C)O)C(=O)N[C@@H](C)C(=O)N[C@@H]([C@@H](C)O)C(=O)N1)[C@@H](C)O)C(C)C)C(=O)N[C@@H](CC(C)C)C(=O)N[C@@H](CO)C(=O)N[C@@H](CO)C(=O)N[C@H](C(=O)N[C@@H](CC(N)=O)C(=O)N[C@H](C(=O)NCC(=O)N[C@@H](CO)C(=O)N[C@@H](CC(N)=O)C(=O)N[C@H](C(=O)N[C@@H](Cc1ccc(O)cc1)C(N)=O)[C@@H](C)O)C(C)C)[C@@H](C)O[C@H]1O[C@H](CO)[C@H](O)[C@H](O[C@@H]2O[C@H](CO)[C@H](O)[C@H](O)[C@H]2O)[C@H]1NC(C)=O	PBS	1 h, pH 7.4	thermodynamic solubility	0.02 mg/mL (≈ 4.69 µM)
O=C(CN1CN(c2ccccc2)C2(CCN(C(=O)c3cnc4[nH]ncc4c3)CC2)C1=O)NCC(F)(F)F	aqueous buffer	pH 6.5	solubility	0.0011 mg/mL (≈ 2.13 µM)
CC[C@H](C)[C@H](NC(=O)[C@H](C)NC(=O)CNC(=O)[C@H](Cc1ccccc1)NC(=O)[C@H](CC(N)=O)NC(=O)[C@H](CC(N)=O)NC(=O)[C@H](CO)NC(=O)[C@H](CO)NC(=O)[C@H](Cc1c[nH]cn1)NC(=O)[C@@H](NC(=O)[C@H](CC(C)C)NC(=O)[C@H](Cc1ccccc1)NC(=O)[C@H](CC(N)=O)NC(=O)[C@H](C)NC(=O)[C@H](CC(C)C)NC(=O)[C@H](CCCNC(=N)N)NC(=O)[C@H](CCC(N)=O)NC(=O)[C@@H](NC(=O)[C@H](C)NC(=O)[C@@H]1CSSC[C@H](NC(=O)[C@@H](N)CCCCN)C(=O)N[C@@H](CC(N)=O)C(=O)N[C@@H]([C@@H](C)O)C(=O)N[C@@H](C)C(=O)N[C@@H]([C@@H](C)O)C(=O)N1)[C@@H](C)O[C@H]1O[C@H](CO)[C@H](O)[C@H](O[C@@H]2O[C@H](CO)[C@H](O)[C@H](O)[C@H]2O)[C@H]1NC(C)=O)C(C)C)C(=O)N[C@@H](CC(C)C)C(=O)N[C@@H](CO)C(=O)N[C@@H](CO)C(=O)N[C@H](C(=O)N[C@@H](CC(N)=O)C(=O)N[C@H](C(=O)NCC(=O)N[C@@H](CO)C(=O)N[C@@H](CC(N)=O)C(=O)N[C@H](C(=O)N[C@@H](Cc1ccc(O)cc1)C(N)=O)[C@@H](C)O)C(C)C)[C@@H](C)O	PBS	1 h, pH 7.4	thermodynamic solubility	0.035 mg/mL (≈ 8.2 µM)
CC1COC2=C1C(=O)C(=O)c1c2ccc2c1C(OC(=O)CNC(=O)CN)CCC2(C)C (mixture of isomers)	PBS	pH 4, 25 °C	thermodynamic solubility	0.366 mg/mL
NC1CCN(C(=O)Oc2cccc([C@H]3CCC[C@@]4(C3)OOC3(O4)C4CC5CC(C4)CC3C5)c2)CC1 (some centres unmarked)	PBS	pH 7.4	kinetic solubility	48.7 µM (≈ 23.5 µg/mL)
CCCCC(CC)COC(=O)CC(C(=O)OCC(CC)CCCC)S(=O)(=O)O.COC(=O)Nc1nc2cc(C(=O)c3ccc(F)cc3)ccc2[nH]1 (centres unmarked)	water		solubility	< 0.001 mg/mL
CC1COC2=C1C(=O)C(=O)c1c2ccc2c1C(OC(=O)CNC(=O)C(N)CO)CCC2(C)C (mixture of isomers)	water	25 °C	thermodynamic solubility	0.491 mg/mL
CC[C@H](C)[C@H](NC(=O)[C@H](C)NC(=O)CNC(=O)[C@H](Cc1ccccc1)NC(=O)[C@H](CC(N)=O)NC(=O)[C@H](CC(N)=O)NC(=O)[C@H](CO)NC(=O)[C@H](CO)NC(=O)[C@H](Cc1c[nH]cn1)NC(=O)[C@@H](NC(=O)[C@H](CC(C)C)NC(=O)[C@H](Cc1ccccc1)NC(=O)[C@H](CC(N)=O)NC(=O)[C@H](C)NC(=O)[C@H](CC(C)C)NC(=O)[C@H](CCCNC(=N)N)NC(=O)[C@H](CCC(N)=O)NC(=O)[C@@H](NC(=O)[C@H](C)NC(=O)[C@@H]1CSSC[C@H](NC(=O)[C@@H](N)CCCCN)C(=O)N[C@@H](CC(N)=O)C(=O)N[C@@H]([C@@H](C)O)C(=O)N[C@@H](C)C(=O)N[C@@H]([C@@H](C)O)C(=O)N1)[C@@H](C)O)C(C)C)C(=O)N[C@@H](CC(C)C)C(=O)N[C@@H](CO)C(=O)N[C@@H](CO)C(=O)N[C@H](C(=O)N[C@@H](CC(N)=O)C(=O)N[C@H](C(=O)NCC(=O)N[C@@H](CO)C(=O)N[C@@H](CC(N)=O)C(=O)N[C@H](C(=O)N[C@@H](Cc1ccc(O)cc1)C(N)=O)[C@@H](C)O)C(C)C)[C@@H](C)O[C@H]1O[C@H](CO)[C@H](O)[C@H](O[C@@H]2O[C@H](CO)[C@H](O)[C@H](O[C@]3(C(=O)O)C[C@H](O)[C@@H](NC(C)=O)[C@H]([C@H](O)[C@H](O)CO)O3)[C@H]2O)[C@H]1NC(C)=O	PBS	1 h, pH 7.4	thermodynamic solubility	3.75 mg/mL (≈ 823 µM)

For quick reference, copied from above:
SMILES	test system	setting	endpoint	result
CC[C@H](C)[C@H](NC(=O)[C@H](C)NC(=O)CNC(=O)[C@H](Cc1ccccc1)NC(=O)[C@H](CC(N)=O)NC(=O)[C@H](CC(N)=O)NC(=O)[C@H](CO)NC(=O)[C@H](CO)NC(=O)[C@H](Cc1c[nH]cn1)NC(=O)[C@@H](NC(=O)[C@H](CC(C)C)NC(=O)[C@H](Cc1ccccc1)NC(=O)[C@H](CC(N)=O)NC(=O)[C@H](C)NC(=O)[C@H](CC(C)C)NC(=O)[C@H](CCCNC(=N)N)NC(=O)[C@H](CCC(N)=O)NC(=O)[C@@H](NC(=O)[C@H](C)NC(=O)[C@@H]1CSSC[C@H](NC(=O)[C@@H](N)CCCCN)C(=O)N[C@@H](CC(N)=O)C(=O)N[C@@H]([C@@H](C)O)C(=O)N[C@@H](C)C(=O)N[C@@H]([C@@H](C)O)C(=O)N1)[C@@H](C)O)C(C)C)C(=O)N[C@@H](CC(C)C)C(=O)N[C@@H](CO)C(=O)N[C@@H](CO)C(=O)N[C@H](C(=O)N[C@@H](CC(N)=O)C(=O)N[C@H](C(=O)NCC(=O)N[C@@H](CO)C(=O)N[C@@H](CC(N)=O)C(=O)N[C@H](C(=O)N[C@@H](Cc1ccc(O)cc1)C(N)=O)[C@@H](C)O)C(C)C)[C@@H](C)O[C@H]1O[C@H](CO)[C@H](O)[C@H](O[C@@H]2O[C@H](CO)[C@H](O)[C@H](O[C@]3(C(=O)O)C[C@H](O)[C@@H](NC(C)=O)[C@H]([C@H](O)[C@H](O)CO)O3)[C@H]2O)[C@H]1NC(C)=O	PBS	1 h, pH 7.4	thermodynamic solubility	3.75 mg/mL (≈ 823 µM)
